{"data": "Measured values of several laboratories", "note": "Numbered parts are unrelated; each lists some results of a single study."}
{"data": "Block 1", "target": "Sal-like protein 4, full length isoform B (SALL4, Homo sapiens, UniProt Q9UJQ4-2, residues 1-616)", "technique": "universal PBM", "form": "double-stranded DNA, one strand shown", "sample": "in vitro", "tested at": "not given", "notes": "8-mer, flanks averaged, mean of replicates", "reading": "higher = stronger binding"}
{"Oligonucleotide": "CCTGTGGA", "E-score": -0.218}
{"Oligonucleotide": "AAACGCAT", "E-score": 0.0798}
{"Oligonucleotide": "CGTCTCAA", "E-score": 0.0493}
{"Oligonucleotide": "CGGATTAA", "E-score": 0.0863}
{"Oligonucleotide": "CGCCATAC", "E-score": 0.0605}
{"Oligonucleotide": "AACGTGAA", "E-score": 0.0595}
{"Oligonucleotide": "TGTCAAAA", "E-score": 0.223}
{"Oligonucleotide": "ACCTACAC", "E-score": 0.00739}
{"Oligonucleotide": "AACCTGGC", "E-score": -0.151}
{"Oligonucleotide": "GAGTTGGC", "E-score": -0.238}
{"Oligonucleotide": "CAAAATTG", "E-score": 0.205}
{"Oligonucleotide": "CAGGATCC", "E-score": -0.181}
{"Oligonucleotide": "AAGGCCAA", "E-score": -0.098}
{"Oligonucleotide": "GTGTGCGA", "E-score": -0.159}
{"Oligonucleotide": "ACGTGTGA", "E-score": 0.012}
{"Oligonucleotide": "CTACCTCA", "E-score": -0.221}
{"Oligonucleotide": "AACTGGTC", "E-score": -0.182}
{"data": "Block 2", "target": "Prothrombin, mature alpha-thrombin (F2, Homo sapiens, UniProt P00734)", "technique": "aptamer microarray, sandwich", "form": "DNA with 2'F-ANA", "sample": "in vitro", "tested at": "200 nM", "notes": "whole 15-mer aptamer, many near background", "added": "Cy3 exosite-II aptamer, 400 nM", "reading": "higher = stronger binding", "oligonucleotide": "GGTTGGTGTGGTTGG"}
{"Modification": "2'F-ANA at 1 3 4 6 8 9 11 12 13", "mean fluorescence intensity [a.u.]": 256}
{"Modification": "2'F-ANA at 1 2 3 4 8 11 13 14 15", "mean fluorescence intensity [a.u.]": 64.2}
{"Modification": "2'F-ANA at 2 3 4 5 6 7 13 15", "mean fluorescence intensity [a.u.]": 57.1}
{"Modification": "2'F-ANA at 4 6 14 15", "mean fluorescence intensity [a.u.]": 147}
{"Modification": "2'F-ANA at 1 2 3 4 7 9 10 13 14", "mean fluorescence intensity [a.u.]": 48.7}
{"Modification": "2'F-ANA at 3 6 7 8 10 15", "mean fluorescence intensity [a.u.]": 647}
{"Modification": "2'F-ANA at 1 3 4 5 9 11 13", "mean fluorescence intensity [a.u.]": 141}
{"Modification": "2'F-ANA at 1 3 4 5 8 11 15", "mean fluorescence intensity [a.u.]": 61.7}
{"Modification": "2'F-ANA at 1 4 5 6 8 9 13 15", "mean fluorescence intensity [a.u.]": 51.1}
{"Modification": "2'F-ANA at 1 3 5 8 9 12 13 14", "mean fluorescence intensity [a.u.]": 47.7}
{"Modification": "2'F-ANA at 3 7 9 10 13 14 15", "mean fluorescence intensity [a.u.]": 440}
{"Modification": "2'F-ANA at 1 2 3 5 6 8 12 14 15", "mean fluorescence intensity [a.u.]": 48.8}
{"Modification": "2'F-ANA at 3 4 8 11 13", "mean fluorescence intensity [a.u.]": 551}
{"Modification": "2'F-ANA at 1 2 3 4 5 6 7 8 9 10 11 12 13 15", "mean fluorescence intensity [a.u.]": 59.6}
{"Modification": "2'F-ANA at 1 3 4 5 6 8 9 11 12 15", "mean fluorescence intensity [a.u.]": 90.6}
{"Modification": "2'F-ANA at 1 6 7 8 12 13", "mean fluorescence intensity [a.u.]": 319}
{"Modification": "2'F-ANA at 2 5 11 12 13 14", "mean fluorescence intensity [a.u.]": 53.8}
{"Modification": "2'F-ANA at 2 3 4 5 10 12 13 14", "mean fluorescence intensity [a.u.]": 45.8}
{"Modification": "2'F-ANA at 2 3 4 10 11 12", "mean fluorescence intensity [a.u.]": 348}
{"Modification": "2'F-ANA at 1 2 3 4 5 7 8 10 12 14 15", "mean fluorescence intensity [a.u.]": 47.5}
{"Modification": "2'F-ANA at 4 5 6 7 8 12 15", "mean fluorescence intensity [a.u.]": 135}
{"Modification": "2'F-ANA at 4 7 8 10 13 15", "mean fluorescence intensity [a.u.]": 76.7}
{"Modification": "2'F-ANA at 7 8 9 12 13 14 15", "mean fluorescence intensity [a.u.]": 262}
{"Modification": "2'F-ANA at 3 4 6 7 9 10 12 14", "mean fluorescence intensity [a.u.]": 169}
{"Modification": "2'F-ANA at 1 3 4 5 10 11 12 13 15", "mean fluorescence intensity [a.u.]": 119}
{"data": "Block 3", "target": "RNA binding protein fox-1 homolog 2, RRM domain, GST-SBP tag (RBFOX2, Homo sapiens, UniProt O43251-10, residues 100-194)", "technique": "RNA Bind-n-Seq", "form": "RNA", "sample": "in vitro", "tested at": "365 nM", "notes": "natural RNA segment, single round, ends assumed", "reference": "no-protein control", "reading": "higher = stronger binding", "constant ends, left off below": "GGGAGUUCUACAGUCCGACGAUC … UGGAAUUCUCGGGUGCCAA", "Construct (chain)": "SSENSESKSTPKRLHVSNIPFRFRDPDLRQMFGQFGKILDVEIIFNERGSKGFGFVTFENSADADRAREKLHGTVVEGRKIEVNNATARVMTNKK"}
{"Oligonucleotide": "GGGCAAAAACCAAUUCGCUUCUCCCCACGUUCUAAAUGCUGGGGCAUGGCUGUCAGGAGGGCUUCCUGGGAGGUGUCUCUGGGGGUGGGGUGAGGUUGGGGCGAUGGCCU", "RBNS enrichment (R)": 0.414}
{"Oligonucleotide": "UGAGAGGCCGGGCAAGCCAGAUUAGGACUUUGUCCUCAUACUCUUACAGUGCUGCAAAGUUGUGUGCAUCGCUAAAGAGAGCCCCAACCUAUACAGAGAGCAAACAAUGA", "RBNS enrichment (R)": 0.472}
{"Oligonucleotide": "AAUACAAAGGAGACGAGGGAGGACUGUGGCUGGCGCUGAGGUUUUGGUCUUGCGAACCCCUAAAUUCUCUCGCUCACGACUGCACAGACUGUCUUGCGGCUCCUCUAUAG", "RBNS enrichment (R)": 0.525}
{"Oligonucleotide": "AUAAUGAGUCCUAUUUUUCUCUCACAUAAUAUGCAUUUGCUCUCCUAGGACAGUGUAAUACAUUUAUGUGAAGUAAAGACAUGCGAGACUGGUGGCCUGCAAAUAGCAUC", "RBNS enrichment (R)": 0.342}
{"Oligonucleotide": "UUAUACAGAGAAACCCUGUCUUGAAAGAGCCAAAAAAAAAAAAAAAAAAUACAAGCCAGGAUUCUGCUCCCAAACCUUCAGGACAAUGGGUAGUCCCCAUGGGACCUUAA", "RBNS enrichment (R)": 0.57}
{"Oligonucleotide": "GGCCCACUUGGGCACCCACGCUUCUGUCCACUUCUGGUUGCCAGGAGACAGCAAGCAAAGCCAGCAGGACAUGAAGUUGCUAUUAAAUGGACUUCGUGAUUUUUGUUUUG", "RBNS enrichment (R)": 0.313}
{"Oligonucleotide": "GCUGACCUCUUAGAGCCGCACAGAUGUGCUAGCCACCAAAAACCUCCUGUAACCAUGCAAGCCUGUAGUUGAGUGAUGACCAUACAUAUGGACAGGGUCCCCUCCUGCUG", "RBNS enrichment (R)": 1.06}
{"Oligonucleotide": "UCUUGCUAGAGAAAACAUAUAUUAAACUGUAACUUUUUCUAAAUUUAAAAGAAGUUUUAAGAUAGAUAUUAAUAUGAAGUGUGUAAUAUUUCUUUUGAGGGUCAAAUAUU", "RBNS enrichment (R)": 0.876}
{"Oligonucleotide": "CCUGGAAGCAGCCCCAUUACCCUGAGAAUGCGGAGCGCCCUGGCCCACCUCGCCCUGUGUUUCCAGGCCUGCACGUCUGGUCCUUCAGCUGCACAUGGAACUGCAGGGCA", "RBNS enrichment (R)": 0.58}
{"Oligonucleotide": "UCUUUUGCCGUCUAGGCCCAGCCAGGCUUUUCUGACUAAAUAAGCAAUAAGAGGCUCUAAGCUGACUGAGUUGCAAGGACCCUUUCCGCCCUCCCUUGGAUCUCCAUGUU", "RBNS enrichment (R)": 0.23}
{"Oligonucleotide": "UAAACAGGGAGUUAUGUGGUGCUUGUGGCGCUUUCAGAACCCAAAGAUUUGUAGUCUGGAAUCAUGUAGUCUCAUAUGCUGCACUUAUUUUUAUAUUUUUCAAUGCACUU", "RBNS enrichment (R)": 10.8}
{"Oligonucleotide": "UGACUGUGUUUUAAAAUUCUCUUUCUAAACACAGAGUGUUGGGCCUGGUUUGUUUCUGACAAAGUUACAGUCCUGGGCCUGUAAUGAAUGUCGGCGGCGCUGGGGUUGCA", "RBNS enrichment (R)": 12.2}
{"data": "Block 4", "target": "Histone acetyltransferase KAT6A, winged helix 1, GST fusion (KAT6A, Homo sapiens, UniProt Q92794, residues 1-85)", "technique": "protein binding microarray", "form": "double-stranded DNA, one strand shown", "sample": "in vitro", "tested at": "not given", "notes": "8-mer, flanks averaged, mean of 2 arrays, mostly near background", "reference": "not given", "reading": "higher = stronger binding", "Residues (chain)": "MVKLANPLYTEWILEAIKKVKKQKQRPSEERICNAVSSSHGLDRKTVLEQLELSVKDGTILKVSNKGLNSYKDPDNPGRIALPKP"}
{"Oligonucleotide": "AAGTAATG", "E-score": -0.00709}
{"Oligonucleotide": "GACCTGAC", "E-score": -0.298}
{"Oligonucleotide": "AAACATGA", "E-score": -0.0511}
{"Oligonucleotide": "ATCGTCAT", "E-score": -0.0875}
{"Oligonucleotide": "CACTGGCG", "E-score": -0.0203}
{"Oligonucleotide": "GGCCGGAC", "E-score": 0.235}
{"Oligonucleotide": "GAATATGA", "E-score": -0.2}
{"Oligonucleotide": "TACAAACA", "E-score": -0.103}
{"Oligonucleotide": "ACGTCTCC", "E-score": 0.0124}
{"Oligonucleotide": "AACGGAGT", "E-score": 0.175}
{"Oligonucleotide": "AGTTAAGG", "E-score": -0.194}
{"Oligonucleotide": "GTCTCCGA", "E-score": 0.0649}
{"Oligonucleotide": "AAAGCAGG", "E-score": -0.177}
{"Oligonucleotide": "AGAGACCT", "E-score": -0.214}
{"Oligonucleotide": "TAGTGCCA", "E-score": -0.0579}
{"Oligonucleotide": "ACAAAACC", "E-score": 0.00424}
{"Oligonucleotide": "CGTCCCCA", "E-score": 0.0344}
{"Oligonucleotide": "CGAGCGAA", "E-score": -0.00907}
{"Oligonucleotide": "GATAAGCC", "E-score": -0.0427}
{"Oligonucleotide": "CGAAGTTC", "E-score": -0.0775}
{"Oligonucleotide": "ATGGTGCG", "E-score": 0.0428}
{"Oligonucleotide": "GCCCGGAC", "E-score": 0.233}
{"Oligonucleotide": "CAGTAACA", "E-score": 0.0523}
{"Oligonucleotide": "AATTGGTC", "E-score": -0.121}
{"Oligonucleotide": "TAAGAAAA", "E-score": -0.0787}
{"data": "Single results of other studies"}
{"Molecule": "PhoQ, residues 284 288 289 292 302 303 HSYLQF", "target": "PhoP, residues 12 14 15 18 19 LHATL (Escherichia coli, UniProt P23836)", "assay": "Sort-seq, refers to: YFP reporter", "test system": "E. coli", "setting": "PhoQ-PhoP variant library, added: 10 µM Mg2+", "scale": "reference: high Mg2+ state, higher = stronger signaling", "endpoint": "fold induction", "result": 2.07}
{"note": "For quick reference, copied from above (block 1):"}
{"Oligonucleotide": "ACCTACAC", "E-score": 0.00739}
{"Oligonucleotide": "AACCTGGC", "E-score": -0.151}
{"Oligonucleotide": "GAGTTGGC", "E-score": -0.238}
{"Oligonucleotide": "CAAAATTG", "E-score": 0.205}
